Published values of several laboratories.
Compare with care: the assays were run in different laboratories.
Target: Tyrosine-protein kinase Fer (FER, Homo sapiens, UniProt P16591)

SMILES | assay | conditions | scale | quantity | result
COc1cc(Nc2nccc(-c3cnn4nc(OC)ccc34)n2)cc(C(F)(F)F)c1 | binding, competition with immobilised ligand | 1 µM |  | remaining binding | 98%
O=C=[N][Ru-4]123([n]4c5ccc(O)cc5c5c6c(c7cc(F)c[n+]1c7c54)C(=O)NC6=O)[S+]1CC[S+]2CC[S+]3CC1 (stereo not drawn) | enzyme activity | 100 nM, human enzyme, together with: 10 µM ATP | reference: untreated | remaining activity | 101%
Cc1cccc(O[C@H]2CCC[C@@H](C(C)CNCc3ccncc3)C2)c1 (relative stereo) | cell-free assay, inhibitor | 10 µM |  | inhibition | -6%
O=C(Cc1ccc(OCc2ccccc2)cc1)NC1(C(=O)O)CCN(C(=O)c2ccc(-c3cccc(Cl)c3)cc2)CC1 | enzyme activity, inhibitor | 10 µM |  | activity vs control | 104%
COc1c(OCCCN2CCOCC2)ccc2c1N=C(NC(=O)c1cnc(N)nc1)N1CCN=C21 | kinase activity, inhibitor | 1 µM | reference: untreated control | remaining activity | 97%
COc1c(Cl)cccc1Nc1c(-c2ccncc2C#C[C@@]2(C)CCCN2C(=O)/C=C/CN(C)C)[nH]c2c1C(=O)NCC2 | binding, competition with immobilised ligand | 3 µM |  | remaining binding | 100%
CCN1CCN(Cc2ccc(C(=O)Nc3ccc(C)c(NCc4cnc5[nH]ccc5c4OC)c3)cc2C(F)(F)F)CC1 | binding, competition with immobilised ligand | 1 µM |  | remaining binding | 43%
Cc1ccc(-c2c(/C=C(\C#N)C(=O)NC(C)C)n(CCCO)c3ncnc(N)c23)cc1 | cell-free assay, competition with immobilised ligand | 1 µM |  | remaining binding | 91%
C=CC(=O)N1CCCC(n2c(=O)c3ncccc3n(Cc3ccc(Oc4ccccc4)cc3)c2=O)C1 (stereo not drawn) | cell-free assay, competition with immobilised ligand | 1 µM |  | remaining binding | 97%
CNC(=O)C1CCN(c2cc(C)c(F)cc2NC(=O)c2ccc(-c3cc(O)ccc3C)c(C)c2)CC1 | binding, competition with immobilised ligand | 1 µM |  | remaining binding | 100%
C=CC(=O)Nc1cccc(-c2cnc3[nH]cc(C(=O)NC(C)(C)C)c3n2)c1 | enzyme activity, inhibitor | 0.1 µM |  | inhibition | 13%
C[C@H]1CN(C(=O)c2cn(-c3ccnc(N)n3)c3cc(C#CC4(O)CCCCC4)ccc23)CCN1 | enzyme activity, inhibitor, FRET | 1 µM |  | inhibition | 85%
Cc1cnc2nc1Nc1cccc(c1)COC/C=C/COCc1cc(ccc1OCCN1CCOCC1)N2 | binding | 0.1 µM |  | remaining binding | 99%
NC(=O)C[C@H]1CCc2sc3ncnc(O[C@H]4CC[C@H](N5CCOCC5)CC4)c3c21 | enzyme activity, inhibitor | 10 µM |  | inhibition | 8%
CN1CC[C@@H](COc2cnc(C#N)cc2-c2ccn3nc(NC(=O)C4CC4)cc3c2)C1 | enzyme activity, inhibitor | 1 µM |  | inhibition | 10%
